Results collected from several papers.
Each numbered part is a random draw from the data of one study; scales do not carry over between parts. Substitutions count along the parent as printed.

Block 1
Target: Interferon regulatory factor 5, full length, phosphomimetic (IRF5, Homo sapiens, UniProt Q13568-2, residues 1-514, S451D/S453D/S456D/S462D)
Technique: protein-binding microarray
Form: double-stranded DNA, one strand shown
Medium: in vitro
Tested at: 940 nM top
Setting: 60-bp whole probe
With: salmon DNA 0.4 mg/ml
Baseline: random background probes
Reading: higher = stronger binding
All sequences stand within: GCCTAGCAC … GTCTTGATTCGCTTGACGCTGCTG
Sequence | fitted relative affinity
GACCGTTTCGGTCTCGGGACGTGCTAG | 6.84 z-score
TTTTTGGATGCTGGAAAAATGTGCTAG | -0.123 z-score
TCATTTTTGCATTGCTTACTGTGCTAG | 0.593 z-score
TTAGGTTTCGACTTTCAGTTAGTGCTA | 8.82 z-score
GACGGTATCCTTATCCTGCCGTGCTAG | 0.0673 z-score
GTAGGTATCGGTTTCGGTTAGTGCTAG | 12 z-score
GACGGTCTTGGTATCGGGACGTGCTAG | 2.39 z-score
GACGATATCGGTATCGGGACGTGCTAG | 2.33 z-score

Block 2
Target: RNA binding protein fox-1 homolog 2, RRM domain, GST-SBP tag (RBFOX2, Homo sapiens, UniProt O43251-10, residues 100-194)
Technique: RNA Bind-n-Seq
Form: RNA
Medium: in vitro
Tested at: 365 nM
Setting: natural RNA segment, single round, ends assumed
Baseline: no-protein control
Reading: higher = stronger binding
Target sequence (chain): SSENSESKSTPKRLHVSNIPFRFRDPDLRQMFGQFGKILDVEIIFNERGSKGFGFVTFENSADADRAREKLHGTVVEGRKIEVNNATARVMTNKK
Sequence | RBNS enrichment (R)
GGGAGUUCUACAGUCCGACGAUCGAACUGUCUGUGCCAGUGAGCGCCAAGGAGAAGGAAAACCUGCCUUAGCCCGAGGGUAGAAGUUGAUGUCAUGUCAGAUAGUUGGUGAAGACCUUUCUAGGGGGCCUGGUUGGAAUUCUCGGGUGCCAA | 0.463
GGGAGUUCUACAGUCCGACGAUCAGCCGAAUAUUUCUACCUAAACUCUGGGUGUGACCUCAGCUCGCUUUCCUCUGAUCCACUGUCCAAGUUGGGUCACAAACAUGUCACUCAUGCAUGCCUGCACUCCAGAGUGGAAUUCUCGGGUGCCAA | 8.79
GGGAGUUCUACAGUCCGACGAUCUCCUUUCUAGGAAUGCUGAUUCAGAGUGCACCUCUUUGACUAGGUCCCAGGAUCCCCUUGUCCCUGGAGUAGGGACUAACUAUAGCACAAAGUAAUAUGUGCCAAUGCUAUGGAAUUCUCGGGUGCCAA | 0.63
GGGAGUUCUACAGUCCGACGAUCUAGUUUAGUGGCAGUGGGAAUCUUUGGACUUCAUUUACCUCUCUCAUUAUUUCUAUUACCAUGGAUAAAAAAGUCAGCUGCUACGUUGAUAUCCCUUCUAUGAGCACAUUUGGAAUUCUCGGGUGCCAA | 0.63
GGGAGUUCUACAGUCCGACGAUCCCUGACAGAUCCCACCUGCCUGUCCACUGCCCAUGACUGAGCCCAGCCCCAGCCCGGGUCCAUUGCCCACAUUCUCUGUCUCCUUCUCGUCGGUCUACCCCACUACCUCCUGGAAUUCUCGGGUGCCAA | 0.757
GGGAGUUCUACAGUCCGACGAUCAAGAGUGAAGGAUUAUGGGAAAACGUCCAUUCCUUUUCCGUGUUUUUGAAGCCCACAGUUUUAGUUGGUACUGACGGAGGGGAGAUUGAGCGAUGCUCUUUCCUUCUCUGUGGAAUUCUCGGGUGCCAA | 0.335
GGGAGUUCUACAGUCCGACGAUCAAGUUGGGCUCAUCUUCCAGGGAGCAAACCUAAAGCUGGCAGUCAGCCGCCCUGGCUAGAGGCCUGCAGUGGAUGAGCGCAAAGUGCCCGGCCACAGCCCCCUCCCUUUAUGGAAUUCUCGGGUGCCAA | 0.21
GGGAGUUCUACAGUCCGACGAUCCUACUCCCUGGACGUGUGGAGCUAGGGCCUGCCUGCCCCACCCACCCCACAGACUCCGGCCUGUAAUCAGCUCUCCUGGCUCCCUCCCGUAGUCUCCUGGGUGUGUUUGGUGGAAUUCUCGGGUGCCAA | 0.865

Block 3
Target: TAR DNA-binding protein 43, full length, His tag (TARDBP, Homo sapiens, UniProt Q13148, residues 1-414)
Technique: RNA Bind-n-Seq
Form: RNA
Medium: in vitro
Tested at: 20 nM
Setting: 6-mer, flanks averaged, single round
With: 150 mM LiCl
Baseline: input library
Reading: higher = stronger binding
Sequence | 6-mer enrichment (R)
UAUUUA | 1.13
AAACAC | 0.802
GUCUCA | 0.853
CGCUCU | 0.852
CAAGAU | 0.805
AAACAG | 0.809
AAUAUU | 1.03
AGAAUG | 1.07

Further values, each from its own experiment
Starting sequence: viral docking peptide; YKVKRRLVFGADD
Variant | target | assay | test system | conditions | how to read | measurement | result
L7V | CCNB3, cyclin fold, Cln2 fusion (human) | yeast growth competition, sequencing | yeast | strong parent motif | baseline: not given, higher = stronger binding | normalised enrichment score | -0.179

Repeated from above (block 3):
Sequence | 6-mer enrichment (R)
AAACAG | 0.809
AAUAUU | 1.03
AGAAUG | 1.07
